{"data": "Published values gathered from unrelated publications", "F2": "Prothrombin (F2, Homo sapiens, UniProt P00734)", "SIRT3": "NAD-dependent protein deacetylase sirtuin-3, mitochondrial (SIRT3, Homo sapiens, UniProt Q9NTG7)", "HTR1E": "5-hydroxytryptamine receptor 1E (HTR1E, Homo sapiens, UniProt P28566)", "AMY2": "Pancreatic alpha-amylase (AMY2, Sus scrofa, UniProt P00690)", "SETDB1 triple Tudor domain": "Histone-lysine N-methyltransferase SETDB1, triple Tudor domain (SETDB1, Homo sapiens, UniProt Q15047)", "SLC6A2": "Sodium-dependent noradrenaline transporter (SLC6A2, Homo sapiens, UniProt P23975)", "SRPK3": "SRSF protein kinase 3 (SRPK3, Homo sapiens, UniProt Q9UPE1)", "note": "Protocols differ between the studies behind these lines. ± marks the error that the study gave.", "sequence of UniProt P00690 (whole entry, looked up)": "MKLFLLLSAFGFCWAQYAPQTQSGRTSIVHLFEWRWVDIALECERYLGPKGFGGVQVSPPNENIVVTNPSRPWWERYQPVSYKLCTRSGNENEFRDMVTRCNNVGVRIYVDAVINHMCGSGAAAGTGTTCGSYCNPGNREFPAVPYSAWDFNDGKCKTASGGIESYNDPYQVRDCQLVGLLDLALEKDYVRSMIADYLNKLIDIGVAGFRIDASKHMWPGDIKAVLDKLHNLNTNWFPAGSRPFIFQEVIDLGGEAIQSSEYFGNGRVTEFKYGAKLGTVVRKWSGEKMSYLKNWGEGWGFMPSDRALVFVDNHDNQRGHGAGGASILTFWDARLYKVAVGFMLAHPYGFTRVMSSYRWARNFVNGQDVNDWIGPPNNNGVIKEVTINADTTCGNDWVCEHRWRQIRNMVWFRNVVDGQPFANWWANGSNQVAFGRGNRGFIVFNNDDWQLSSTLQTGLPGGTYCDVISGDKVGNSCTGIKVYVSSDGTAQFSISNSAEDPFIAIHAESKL", "sequence of UniProt Q9NTG7 (whole entry, looked up)": "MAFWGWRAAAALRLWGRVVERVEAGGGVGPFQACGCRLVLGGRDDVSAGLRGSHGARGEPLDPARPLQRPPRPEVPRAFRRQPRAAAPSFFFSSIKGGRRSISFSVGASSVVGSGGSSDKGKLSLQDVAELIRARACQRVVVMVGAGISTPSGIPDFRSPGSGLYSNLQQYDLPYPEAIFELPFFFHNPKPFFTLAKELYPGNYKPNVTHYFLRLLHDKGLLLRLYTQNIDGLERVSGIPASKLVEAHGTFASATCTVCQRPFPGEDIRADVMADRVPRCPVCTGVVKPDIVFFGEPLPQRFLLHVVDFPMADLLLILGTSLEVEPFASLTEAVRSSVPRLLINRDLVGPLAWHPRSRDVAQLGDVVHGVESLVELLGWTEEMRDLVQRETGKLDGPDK", "sequence of UniProt P28566 (whole entry, looked up)": "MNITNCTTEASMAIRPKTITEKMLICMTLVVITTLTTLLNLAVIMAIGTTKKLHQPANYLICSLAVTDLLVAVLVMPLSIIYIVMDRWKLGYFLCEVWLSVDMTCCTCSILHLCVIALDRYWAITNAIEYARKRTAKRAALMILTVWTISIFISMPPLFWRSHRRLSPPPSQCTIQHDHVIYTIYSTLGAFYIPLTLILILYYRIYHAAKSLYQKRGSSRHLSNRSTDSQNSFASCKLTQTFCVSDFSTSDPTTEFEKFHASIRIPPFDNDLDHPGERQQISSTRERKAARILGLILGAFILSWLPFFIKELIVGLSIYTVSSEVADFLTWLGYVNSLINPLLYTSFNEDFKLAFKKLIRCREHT", "sequence of UniProt Q9UPE1 (whole entry, looked up)": "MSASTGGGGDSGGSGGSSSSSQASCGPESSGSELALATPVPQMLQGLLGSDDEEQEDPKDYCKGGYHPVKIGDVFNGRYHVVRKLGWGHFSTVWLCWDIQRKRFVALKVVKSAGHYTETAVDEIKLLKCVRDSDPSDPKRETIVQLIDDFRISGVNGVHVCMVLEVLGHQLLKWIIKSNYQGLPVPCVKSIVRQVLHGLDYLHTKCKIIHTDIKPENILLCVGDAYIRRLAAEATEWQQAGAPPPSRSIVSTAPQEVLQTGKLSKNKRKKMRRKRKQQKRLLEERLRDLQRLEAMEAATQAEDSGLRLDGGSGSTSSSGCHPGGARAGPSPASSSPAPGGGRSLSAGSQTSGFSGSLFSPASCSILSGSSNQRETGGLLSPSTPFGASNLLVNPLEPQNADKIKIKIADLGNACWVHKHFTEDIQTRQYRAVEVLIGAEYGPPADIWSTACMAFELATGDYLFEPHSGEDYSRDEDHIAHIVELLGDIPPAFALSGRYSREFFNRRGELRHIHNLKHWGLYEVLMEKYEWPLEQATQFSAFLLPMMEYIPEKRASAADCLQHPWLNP", "sequence of UniProt P23975 (whole entry, looked up)": "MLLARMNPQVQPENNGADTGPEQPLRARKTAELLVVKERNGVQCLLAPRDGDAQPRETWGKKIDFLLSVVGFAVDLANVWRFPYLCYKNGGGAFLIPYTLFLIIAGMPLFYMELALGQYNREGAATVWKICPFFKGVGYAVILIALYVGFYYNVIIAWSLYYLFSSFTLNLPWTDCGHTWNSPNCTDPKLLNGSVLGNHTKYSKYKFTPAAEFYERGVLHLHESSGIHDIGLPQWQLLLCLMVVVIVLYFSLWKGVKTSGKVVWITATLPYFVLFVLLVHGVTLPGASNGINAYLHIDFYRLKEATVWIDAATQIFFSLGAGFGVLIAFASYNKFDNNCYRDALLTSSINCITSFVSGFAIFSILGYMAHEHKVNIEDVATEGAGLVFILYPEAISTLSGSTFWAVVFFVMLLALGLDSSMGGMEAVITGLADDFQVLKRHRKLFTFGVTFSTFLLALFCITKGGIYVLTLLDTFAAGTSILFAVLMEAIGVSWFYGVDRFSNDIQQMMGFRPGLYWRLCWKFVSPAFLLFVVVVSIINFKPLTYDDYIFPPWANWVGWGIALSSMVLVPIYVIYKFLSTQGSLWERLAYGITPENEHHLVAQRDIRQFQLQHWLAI", "sequence of UniProt Q9NZQ7 (whole entry, looked up)": "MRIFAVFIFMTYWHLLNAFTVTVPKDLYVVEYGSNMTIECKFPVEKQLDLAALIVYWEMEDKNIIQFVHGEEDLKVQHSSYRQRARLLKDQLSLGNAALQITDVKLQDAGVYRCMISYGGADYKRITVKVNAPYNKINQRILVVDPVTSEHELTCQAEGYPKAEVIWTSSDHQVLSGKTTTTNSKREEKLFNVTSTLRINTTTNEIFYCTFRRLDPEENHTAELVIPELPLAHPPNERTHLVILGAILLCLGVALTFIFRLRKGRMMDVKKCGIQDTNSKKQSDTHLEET", "sequence of UniProt Q4FZB7 (whole entry, looked up)": "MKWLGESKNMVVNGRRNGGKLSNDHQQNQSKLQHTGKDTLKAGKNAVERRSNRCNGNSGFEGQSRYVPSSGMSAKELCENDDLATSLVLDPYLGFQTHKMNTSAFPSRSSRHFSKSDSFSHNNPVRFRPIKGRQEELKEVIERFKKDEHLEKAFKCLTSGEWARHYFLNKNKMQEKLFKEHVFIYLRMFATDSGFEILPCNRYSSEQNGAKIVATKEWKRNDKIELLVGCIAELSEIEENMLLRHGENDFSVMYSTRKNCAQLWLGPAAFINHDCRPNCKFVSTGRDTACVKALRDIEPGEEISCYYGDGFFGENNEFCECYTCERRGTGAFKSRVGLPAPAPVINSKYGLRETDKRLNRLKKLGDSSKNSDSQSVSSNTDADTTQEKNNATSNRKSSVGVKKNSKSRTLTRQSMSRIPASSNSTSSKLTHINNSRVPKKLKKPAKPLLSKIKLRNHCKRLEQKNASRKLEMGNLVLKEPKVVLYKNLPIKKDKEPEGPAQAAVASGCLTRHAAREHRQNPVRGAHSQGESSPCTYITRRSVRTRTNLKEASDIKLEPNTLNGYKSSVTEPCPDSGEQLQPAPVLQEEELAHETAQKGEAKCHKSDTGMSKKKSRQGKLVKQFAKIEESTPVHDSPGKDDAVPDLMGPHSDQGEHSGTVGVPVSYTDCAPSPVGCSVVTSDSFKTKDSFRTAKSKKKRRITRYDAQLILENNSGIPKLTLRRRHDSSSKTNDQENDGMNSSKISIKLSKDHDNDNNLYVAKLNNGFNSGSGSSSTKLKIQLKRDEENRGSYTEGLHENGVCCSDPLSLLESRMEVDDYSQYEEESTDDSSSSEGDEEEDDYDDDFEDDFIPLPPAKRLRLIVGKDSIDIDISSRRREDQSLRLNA", "sequence of UniProt Q96EB6 (whole entry, looked up)": "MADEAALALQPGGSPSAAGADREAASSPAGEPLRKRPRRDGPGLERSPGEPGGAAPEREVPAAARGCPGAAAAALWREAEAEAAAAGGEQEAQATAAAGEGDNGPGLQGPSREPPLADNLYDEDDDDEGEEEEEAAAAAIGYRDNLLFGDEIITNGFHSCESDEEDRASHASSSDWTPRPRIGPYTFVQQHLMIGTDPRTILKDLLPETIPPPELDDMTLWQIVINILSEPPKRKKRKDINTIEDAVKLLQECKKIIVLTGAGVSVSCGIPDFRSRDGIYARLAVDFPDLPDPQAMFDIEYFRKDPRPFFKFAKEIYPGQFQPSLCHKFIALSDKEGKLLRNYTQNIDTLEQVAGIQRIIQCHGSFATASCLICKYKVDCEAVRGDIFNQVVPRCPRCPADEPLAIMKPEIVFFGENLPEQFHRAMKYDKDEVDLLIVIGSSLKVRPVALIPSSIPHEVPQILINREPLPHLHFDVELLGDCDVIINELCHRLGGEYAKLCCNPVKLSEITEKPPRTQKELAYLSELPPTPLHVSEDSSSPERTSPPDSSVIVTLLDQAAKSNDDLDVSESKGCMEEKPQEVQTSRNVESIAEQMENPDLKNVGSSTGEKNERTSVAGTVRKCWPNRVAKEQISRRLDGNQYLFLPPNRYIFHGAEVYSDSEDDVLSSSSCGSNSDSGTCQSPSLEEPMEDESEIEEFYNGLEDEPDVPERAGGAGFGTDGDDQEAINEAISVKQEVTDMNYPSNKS", "sequence of UniProt P41968 (whole entry, looked up)": "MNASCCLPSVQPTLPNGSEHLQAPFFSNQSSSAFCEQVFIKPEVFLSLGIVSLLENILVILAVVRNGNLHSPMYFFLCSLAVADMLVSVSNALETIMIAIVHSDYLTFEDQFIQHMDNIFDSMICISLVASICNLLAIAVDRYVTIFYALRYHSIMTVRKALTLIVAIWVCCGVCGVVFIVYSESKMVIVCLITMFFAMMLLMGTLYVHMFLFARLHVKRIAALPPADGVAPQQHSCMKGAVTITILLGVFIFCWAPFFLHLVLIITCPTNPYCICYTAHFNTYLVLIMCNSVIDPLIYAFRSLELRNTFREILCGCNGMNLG"}
{"SMILES": "C[Si](C)(C)C[C@@H](CN)CC(=O)O", "target": "KATP channel, human", "test": "binding, radioligand binding", "setting": "75 µM, with: [3H]glyburide", "inhibition": "0%"}
{"SMILES": "Cc1ccc(CN(C)C(=O)C(CCc2ccccc2)NC(=O)C(NC(=O)c2ccc(OCc3ccccc3)cc2)C(C)O)cc1 (stereo not shown)", "target": "F2", "test": "enzyme activity, inhibitor", "setting": "100 µM", "inhibition": "21%"}
{"SMILES": "CC(C)C(OC(=O)C(C)(C)C)n1nnnc1CCNC(=S)NCCCC[C@H](NS(=O)(=O)c1cccc(F)c1)C(=O)N[C@@H](Cc1c[nH]c2ccccc12)C(=O)NC1CCC1 (stereo partly shown)", "target": "SIRT3", "test": "deacylase activity", "setting": "1 µM, with: NAD+ 500 µM", "inhibition": "< 0%"}
{"SMILES": "CCCCCCCCCCCCNC(=S)NCCCC[C@H](NC(=O)OCc1ccccc1)C(=O)N[C@@H](Cc1ccc(O)c([N+](=O)[O-])c1)C(=O)N[C@@H](CCCNC(=N)N)C(N)=O", "target": "SIRT3", "test": "enzyme activity, inhibitor", "setting": "1 µM", "inhibition": "28%"}
{"SMILES": "Cc1ccc(CNC(=O)[C@H](CCc2ccccc2)NC(=O)[C@H](CC(=O)NCC(C)(C)C)NC(=O)CCc2cccc(F)c2)cc1", "target": "trypsin", "test": "enzyme activity, inhibitor", "setting": "100 µM", "inhibition": "-1%"}
{"SMILES": "COc1ccc(C(=O)Nc2c(-c3cccs3)nc3ccccn23)cc1", "target": "HTR1E", "test": "ligand displacement, radioligand", "setting": "10 µM", "inhibition": "< 50%"}
{"SMILES": "C=C(NC(=O)c1csc(-c2ccc(NC(=O)CCCCCBr)cc2)n1)C(=O)NC(=C)C(=O)OC", "target": "TXNRD1 (Homo sapiens, UniProt Q16881)", "test": "enzyme activity", "setting": "50 µM, 1 h, pH 8.0, 37 °C", "inhibition": "no inhibition"}
{"SMILES": "c1ccc(OC[C@H]2CN(CCN3CCc4ccccc43)CCO2)nc1", "target": "HTR1E", "test": "radioligand binding", "setting": "concentration not given, with: [3H]5-HT", "inhibition": "-35.2%"}
{"SMILES": "O=c1c(O)c(-c2ccc(O)cc2O)oc2c(Br)c(O)c(Br)c(O)c12", "target": "AMY2", "test": "enzyme activity, inhibitor", "setting": "50 µM, 30 min", "inhibition": "99.9%"}
{"SMILES": "C=CS(=O)(=O)Nc1ccc2nc(NCCCCCN(C)C)nc(NCCCCCCN(C)C)c2c1", "target": "SETDB1 triple Tudor domain", "setting": "11.11 µM", "inhibition": "116%"}
{"SMILES": "O=c1cc(-c2ccccc2)oc2c(Br)c(O)c(O)c(O)c12", "target": "AMY2", "test": "enzyme activity, inhibitor", "setting": "50 µM, with: CNP-G3 substrate", "inhibition": "0%"}
{"SMILES": "Cc1ccc(N(O)/N=N/c2ccc(S(=O)(=O)Nc3nccs3)cc2)cc1", "target": "AMY2", "test": "enzyme activity, inhibitor", "setting": "180 µg/mL", "inhibition": "26.3%"}
{"SMILES": "COc1cc(OC)c(F)c(/C=C/c2cnc3ccn(S(=O)(=O)c4cn(CCF)cn4)c3n2)c1F", "target": "FLT1 (Homo sapiens, UniProt P17948)", "setting": "100 nM", "inhibition": "0%"}
{"SMILES": "COc1cc(NC(=O)Nc2cccc(C(=O)N3CCC(C)CC3)c2)cc(OC)c1", "target": "Penicillin-binding protein 4 (Staphylococcus aureus, UniProt P72355)", "test": "Bocillin-FL binding, fluorescence polarization", "setting": "50 µM, 1 µM PBP4", "inhibition": "74.9 ± 21.1%"}
{"SMILES": "Brc1ccccc1-c1nnc(CSc2nnnn2-c2ccccc2)o1", "target": "SLC6A2", "test": "ligand displacement, radioligand", "setting": "10 µM", "inhibition": "8%"}
{"SMILES": "CC(=O)C12NC(C)(C)CC1(C)C(=O)C1=C2c2c(c3c4n2C(C)(C)CC2=C4C4(CC(C)(C)NC(C)(C4)C2=O)CC3(C)C)C(=O)C(C)(C)N1 (single isomer, unassigned; (+))", "target": "P2X purinoceptor 4 (P2RX4, Homo sapiens, UniProt Q99571)", "test": "ion current, antagonist, whole-cell patch clamp", "system": "HEK293T", "setting": "10 µM", "inhibition": "8.71 ± 0.06%"}
{"SMILES": "Cc1ccnc(OC[C@H]2CN(CCN3CCc4ccccc43)CCO2)c1", "target": "HTR1E", "test": "radioligand binding", "setting": "concentration not given, with: [3H]5-HT", "inhibition": "-13.1%"}
{"SMILES": "S=C(NCC1(N2CCCCC2)CCCCC1)NC1CC2CCC1C2 (stereo not shown)", "target": "CXCR4 (Homo sapiens, UniProt P61073)", "test": "arrestin recruitment, DiscoverX arrestin", "setting": "30 µM", "inhibition": "43%"}
{"SMILES": "O=C1c2sc(-c3ccc(N4CCC(F)C4)nc3F)nc2CCN1c1cccnc1 (stereo not shown)", "target": "CHRNA1/CHRNG/CHRND (Homo sapiens, UniProt P02708+P07510+Q07001)", "test": "radioligand binding, antagonist", "setting": "1 µM", "inhibition": "8%"}
{"SMILES": "CN(C)C/C=C/C(=O)Nc1ccc2nc(NCCCCCN(C)C)nc(NCCCCCCN(C)C)c2c1", "target": "CARM1 (Homo sapiens, UniProt Q86X55)", "test": "enzyme activity, inhibitor, radiometric", "setting": "10 µM", "inhibition": "52%"}
{"SMILES": "Cc1ccc(CNC(=O)C(CCc2ccccc2)NC(=O)C(NC(=O)Cc2cccc(Oc3ccccc3)c2)C(C)O)cc1 (stereo not shown)", "target": "F2", "test": "enzyme activity, inhibitor", "setting": "100 µM", "inhibition": "17%"}
{"SMILES": "CCCCCCCCCCCCNC(=S)NCCCC[C@H](NC(=O)OCc1ccccc1)C(=O)N[C@@H](CCCNC(=N)N)C(=O)N[C@@H](CCCNC(=N)N)C(N)=O", "target": "SIRT3", "test": "enzyme activity, inhibitor", "setting": "1 µM", "inhibition": "48%"}
{"SMILES": "CN(C)CCCCCCNc1nc(NCCCCCN(C)C)nc2ccc(NC(=O)CCl)cc12", "target": "SETDB1 triple Tudor domain", "setting": "11.11 µM", "inhibition": "93.7%"}
{"SMILES": "CC(C)Cn1c(SCC(=O)N2CCc3ccccc3C2)nc2cc(Cl)ccc2c1=O", "target": "HTR1E", "test": "ligand displacement, radioligand", "setting": "10 µM", "inhibition": "11%"}
{"SMILES": "CCCCCCCCCCCCNC(=S)NCCCC[C@H](NC(=O)OCc1ccccc1)C(=O)NC(C)(C)C(=O)N[C@@H](CCCNC(=N)N)C(N)=O", "target": "SIRT3", "test": "enzyme activity, inhibitor", "setting": "10 µM", "inhibition": "< 5%"}
{"SMILES": "C#CC(=O)Nc1ccc2nc(NCCCCCN(C)C)nc(NCCCCCCN(C)C)c2c1", "target": "SETDB1 triple Tudor domain", "setting": "1.235 µM", "inhibition": "46.7%"}
{"SMILES": "C=CCNC(=O)[C@H](CCc1ccccc1)NC(=O)[C@H](CC(=O)NCC(C)(C)C)NC(=O)CCc1ccccc1", "target": "chymotrypsin", "test": "enzyme activity, inhibitor", "setting": "100 µM", "inhibition": "-4%"}
{"SMILES": "C/C=C/C(=O)Nc1ccc2nc(NCCCCCN(C)C)nc(NCCCCCCN(C)C)c2c1", "target": "KMT5B (Homo sapiens, UniProt Q4FZB7)", "test": "enzyme activity, inhibitor, radiometric", "setting": "50 µM", "inhibition": "67%"}
{"SMILES": "CC[C@H](C)[C@H](NC(=O)[C@@H](NC(=O)[C@H](Cc1c[nH]c2ccccc12)NC(=O)[C@H](CO)NC(=O)[C@H](Cc1c[nH]c2ccccc12)NC(=O)[C@H](CO)NC(=O)[C@H](CCC(=O)O)NC(C)=O)[C@@H](C)CC)C(N)=O", "target": "Programmed cell death 1 ligand 1, with PD-1 (CD274, Homo sapiens, UniProt Q9NZQ7)", "test": "PD-1/PD-L1 binding, ELISA", "setting": "10 µM", "inhibition": "24 ± 3.4%"}
{"SMILES": "O=C1CO[C@H](CNC(=O)C2(c3ccc(Cl)cc3)CC2)CN1C1Cc2ccccc2C1", "target": "CCR7 (Homo sapiens, UniProt P32248)", "test": "β-arrestin recruitment, antagonist", "setting": "1 µM", "inhibition": "2%"}
{"SMILES": "O=C1c2sc(-c3ccc(N4CCC(CO)CC4)nc3F)nc2CCN1c1cccnc1", "target": "MC3R (Homo sapiens, UniProt P41968)", "test": "ligand displacement, radioligand", "setting": "1 µM", "inhibition": "-10%"}
{"SMILES": "O=C(Nc1ccccc1)Nc1ccccc1O", "target": "SRPK3", "test": "binding, KINOMEscan competitive binding", "setting": "concentration not given", "inhibition": "93.3%"}
{"SMILES": "CCCCCCCCCCCCNC(=S)NCCCC[C@H](NC(=O)OCc1ccccc1)C(=O)N[C@@H](Cc1ccc(O)cc1)C(=O)N[C@@H](CCCNC(=N)N)C(N)=O", "target": "SIRT3", "test": "enzyme activity, inhibitor", "setting": "1 µM", "inhibition": "18%"}
{"SMILES": "COc1c(Br)c(O)c(Br)c2c1C(=O)CC(c1ccccc1)O2 (stereo not shown)", "target": "AMY2", "test": "enzyme activity, inhibitor", "setting": "50 µM, 30 min", "inhibition": "45%"}
{"SMILES": "C[Si]1(C[C@H](CN)CC(=O)O)CCCC1", "target": "SSTR3 (Homo sapiens, UniProt P32745)", "test": "ligand displacement, radioligand", "setting": "70 µM", "inhibition": "-2%"}
{"SMILES": "CN(Cc1ccc(/C=C/C(=O)NO)cc1)CC12CC3CC(CC(C3)C1)C2", "target": "human beta1 adrenoceptor", "test": "agonist radioligand binding", "setting": "0.05 µM", "inhibition": "-11%"}
{"SMILES": "CC(C)NC(=O)[C@H](CCc1ccccc1)NC(=O)[C@H](CC(=O)NCC(C)(C)C)NC(=O)CCc1ccccc1", "target": "F2", "test": "enzyme activity, inhibitor", "setting": "100 µM", "inhibition": "9%"}
{"SMILES": "CCOC(=O)C12CC1C(n1cnc3c(NC)nc(C#Cc4ccc(Br)s4)nc31)C(O)C2O (stereo not shown)", "target": "SLC6A2", "test": "ligand displacement, radioligand", "setting": "10 µM", "inhibition": "57%"}
{"SMILES": "COc1ccc(C[C@H](NC(=O)Cc2cccc(Oc3ccccc3)c2)C(=O)N[C@@H](Cc2c[nH]c3ccccc23)C(=O)NCc2ccc(C)cc2)cc1OC", "target": "chymotrypsin", "test": "enzyme activity, inhibitor", "setting": "100 µM", "inhibition": "1%"}
{"SMILES": "CC(=O)N[C@H](C(=O)N[C@@H](CO)C(=O)N[C@@H](Cc1ccccc1)C(=O)N[C@H]1CCCCNC(=N)NCCCCNC(=N)NCCCC[C@@H](C(=O)N[C@@H](CC(C)C)C(=O)N[C@@H](CC(C)C)C(=O)N[C@@H](CO)C(=O)N2CCC[C@H]2C(N)=O)NC(=O)[C@H](Cc2c[nH]c3ccccc23)NC(=O)[C@H](Cc2ccc(O)cc2)NC(=O)[C@H](CCC(=O)O)NC1=O)[C@@H](C)O", "target": "Protein Mdm4 (MDM4, Homo sapiens, UniProt O15151)", "test": "protein-protein interaction, inhibitor, TR-FRET", "setting": "0.1 µM", "inhibition": "≥ 90%"}
{"SMILES": "O=C(Nc1ccc(C(F)F)cc1)[C@H](CC1CCCCC1)Nc1nn2c(=O)ccnc2s1", "target": "PTPN1 (Homo sapiens, UniProt P18031)", "test": "enzyme activity, inhibitor", "setting": "10 µM", "inhibition": "-9%"}
{"SMILES": "N#Cc1ccc(NC(=O)Nc2ccccc2-c2ccccc2)cc1", "target": "SRPK3", "test": "binding, KINOMEscan competitive binding", "setting": "concentration not given", "inhibition": "32%"}
{"SMILES": "Cc1ccc(-c2nn(-c3ccc(S(C)(=O)=O)cc3)cc2/C=N/N=C2/NC(=O)CS2)cc1", "target": "EGFR (Homo sapiens, UniProt P00533)", "test": "kinase activity, inhibitor", "setting": "10 µM", "inhibition": "83.8%"}
{"SMILES": "COCC(=O)N1CCc2cc(-c3csc(NC(=O)c4cc(OC)cc(OC)c4)n3)ccc21", "target": "kainate receptor, rat", "test": "radioligand binding", "setting": "10 µM", "inhibition": "4%"}
{"SMILES": "CCCCCCCCCCCCNC(=S)NCCCC[C@H](NC(C)=O)C(=O)N[C@H](C)C(=O)N[C@@H](CCCNC(=N)N)C(N)=O", "target": "SIRT1 (Homo sapiens, UniProt Q96EB6)", "test": "enzyme activity, inhibitor", "setting": "1 µM", "inhibition": "34%"}
{"SMILES": "Cc1ccc(CNC(=O)C(CCc2ccccc2)NC(=O)C(NC(=O)c2ccc(OCc3ccc(C(C)(C)C)cc3)cc2)C(C)O)cc1 (stereo not shown)", "target": "F2", "test": "enzyme activity, inhibitor", "setting": "100 µM", "inhibition": "12%"}
